# Published values collected from several papers.
# Every numbered part comes from another study and shows a few of its results, in no order.

# Sample 1
# Target: RNA binding protein fox-1 homolog 2, RRM domain, GST-SBP tag (RBFOX2, Homo sapiens, UniProt O43251-10, residues 100-194)
# Method: RNA Bind-n-Seq
# Molecule type: RNA
# Medium: in vitro
# Tested at: 365 nM
# Setting: natural RNA segment, single round, ends assumed
# Relative to: no-protein control
# Reading: higher = stronger binding
# Construct (chain): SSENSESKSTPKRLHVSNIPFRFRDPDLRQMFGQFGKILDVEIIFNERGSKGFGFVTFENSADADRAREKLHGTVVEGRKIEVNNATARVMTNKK
Oligonucleotide,RBNS enrichment (R)
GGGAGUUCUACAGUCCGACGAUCCUUGGGUGCAGCCAUCACUGGAUUUUGAUCGUCAGGCCAGCAGGAUGGAUGACAUCUCAUUGAUAGUACCCAGAUGUUGGUGGCUUUCUGAGUUGCCUGUUUACUGUUGAUGGAAUUCUCGGGUGCCAA,0.421
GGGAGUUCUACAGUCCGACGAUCUUCUCCCCAGGUGUACCAUUUUAGCAUAUGCAUUAUGUGAUUGGAAUUGAGGCAUUUUAGUGGACAAUAUCAUAAUUUCUAUCAUGGAAAGUGUAUUUAAUGUCUGUGUCUGGAAUUCUCGGGUGCCAA,0.296
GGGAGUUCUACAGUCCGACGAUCGAGUUUAAAGUCUUAAUCUAUGCAUUCAGAGAAAUAUUUUUAUAUGCUUUGUGUAAUUUAUAACAAGGAUUUUUUUUUUAGCUUUGUUAACUGUGAAUUCACCCCUCCUCUGGAAUUCUCGGGUGCCAA,0.524
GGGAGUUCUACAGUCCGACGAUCUGUAUGUUUAAAAGAUAGCAUCUAGAAUGAUCACUUGUGCUUAGCGUAGCAUUGUAAGCGCUGAAGUAUAUAUUUUCUUCAGUAAGUCUCUUUAAAAUUUCAAGUGUUAUUGGAAUUCUCGGGUGCCAA,1.93
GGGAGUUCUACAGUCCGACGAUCUGAGCUUCUCAGAGUGGAAUGACUCCUUUUCCUUCCUGGCCCUCGGGGGCCUCUCGAGGUCAGCCUCUCCAACCCCUACCUCAGCUCCUGUCUGCACUGAGAAACCUCCCUGGAAUUCUCGGGUGCCAA,0.63
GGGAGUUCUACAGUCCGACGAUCCCUCUUGUUCUGAAAGGGAUUUCACAUCUUCAGCGUAGCUUCAGUACAUCAUCGGAGGAGUCUGCUGUCCCUAACACAGAGGGAGACCUCGCUUUCCUACCCCAAGCAAGUGGAAUUCUCGGGUGCCAA,0.355
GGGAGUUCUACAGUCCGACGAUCCCCAAAACUAGGGGUCCGUCAGUCUUGGAGACUAUGGGAGCCUCUGCACCCAGGGAAAAUGUUACCCUUUACAGGGGGGAAGGGUAAACCAGUAGGGAAUACAGUACAAUUGGAAUUCUCGGGUGCCAA,2.08
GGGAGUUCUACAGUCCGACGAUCAUUUCCUAUAAUGUUAUAUCAUAGGAAGCCCUCACAGAGACACUAACACAGCUAAAGAUCUUCUGAUAUUAUCAGCAAGGGAUGCAAGGACUUUAUUGGAAUCUGGAGAGUGGAAUUCUCGGGUGCCAA,0.256
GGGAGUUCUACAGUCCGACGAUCCUGUAUUCUUGCCAAAGAUUUCCUUUAAACAAGAGCACUUUUACCCAAUGGCUCUUUUGUGAAUGAUCUGUUUCGUUAUUGUUUAUUGUUGAGUCUGUAUAUCAACAGGGUGGAAUUCUCGGGUGCCAA,0.49

# Sample 2
# Target: PABPC1L2, full length, GST fusion (mouse, UniProt A0ABA7IW68)
# Method: RNAcompete
# Molecule type: RNA
# Medium: in vitro
# Tested at: 20 nM
# Setting: 7-mer, probes averaged, single round
# Relative to: mean of 7-mers
# Reading: higher = stronger binding
# Target sequence (chain): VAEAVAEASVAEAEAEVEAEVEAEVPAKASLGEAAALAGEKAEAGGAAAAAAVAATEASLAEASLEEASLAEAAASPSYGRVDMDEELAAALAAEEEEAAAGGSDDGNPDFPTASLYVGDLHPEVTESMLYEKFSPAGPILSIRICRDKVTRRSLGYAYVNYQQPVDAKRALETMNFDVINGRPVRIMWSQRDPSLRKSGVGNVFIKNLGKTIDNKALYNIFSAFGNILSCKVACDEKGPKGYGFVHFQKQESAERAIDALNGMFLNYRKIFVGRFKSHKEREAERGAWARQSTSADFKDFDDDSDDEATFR
Oligonucleotide,7-mer Z-score
UGCUGGA,0.0152
AUGGUUU,-0.358
ACAAAGG,0.657
UCCUCCC,-0.492
GCCGGCA,-0.335
CACAGGU,-0.117
UUAUCUG,-0.296
GAUACAU,-0.0663
AAAGCGA,1.27
AACUACC,-0.231
CCGGCAG,-0.0881
AGGCACG,0.28
AAUAACA,0.452
CACAGGA,0.2
UGUGCAC,-0.188
GGCUGGA,0.338
UUAGACC,-0.298
UAGGGGA,0.155
AUUUUCU,-0.213
AUGAGCU,-0.2
GAUUCUG,-0.316
AAUACGC,0.128
CGUACUA,-0.278
AAAUAUU,1.48
UCCAGUA,-0.0808

# Sample 3
# Target: Histone acetyltransferase KAT6A, both winged helices, GST fusion (KAT6A, Homo sapiens, UniProt Q92794, residues 1-181)
# Method: protein binding microarray
# Molecule type: double-stranded DNA, one strand shown
# Medium: in vitro
# Tested at: not given
# Setting: 8-mer, flanks averaged, mean of 2 arrays, mostly near background
# Relative to: not given
# Reading: higher = stronger binding
# Residues (chain): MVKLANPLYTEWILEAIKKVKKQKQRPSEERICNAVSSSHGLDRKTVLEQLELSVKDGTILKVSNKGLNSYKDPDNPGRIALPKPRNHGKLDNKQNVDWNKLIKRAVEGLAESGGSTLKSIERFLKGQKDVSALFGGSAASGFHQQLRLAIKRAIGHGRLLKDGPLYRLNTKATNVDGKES
Oligonucleotide,E-score
CCTAAACC,-0.148
ACCTGACG,0.0201
GGCACCAA,0.0565
AATGGCCC,-0.0652
AAGGAATG,-0.0627
AACGGGAG,0.134
AGAATCTG,-0.124
AGTCGGTG,-0.0897
AAGCGGGG,0.111
ATACCAGA,-0.226
AAGGTTTC,-0.0578
CCACATGG,-0.183
CGCTGGCA,0.0662
CACGCGTG,0.231
GGCTCTCA,0.0261
CAAGAAAA,-0.0871
CAAAGCCA,-0.261
TGGGAAAA,-0.128
ATGCCTGA,-0.254
ATCACGGA,0.164
AGCCTGAC,-0.124
AGGGGAAT,-1.5e-05

# Sample 4
# Target: RING finger protein unkempt homolog, zinc fingers 1-6, GST-SBP tag (UNK, Homo sapiens, UniProt Q9C0B0, residues 30-357)
# Method: RNA Bind-n-Seq
# Molecule type: RNA
# Medium: in vitro
# Tested at: not given
# Setting: RNA with constant flanks, human and mouse sites, ends assumed
# Relative to: input RNA pool
# Reading: higher = stronger binding
# Residues (chain): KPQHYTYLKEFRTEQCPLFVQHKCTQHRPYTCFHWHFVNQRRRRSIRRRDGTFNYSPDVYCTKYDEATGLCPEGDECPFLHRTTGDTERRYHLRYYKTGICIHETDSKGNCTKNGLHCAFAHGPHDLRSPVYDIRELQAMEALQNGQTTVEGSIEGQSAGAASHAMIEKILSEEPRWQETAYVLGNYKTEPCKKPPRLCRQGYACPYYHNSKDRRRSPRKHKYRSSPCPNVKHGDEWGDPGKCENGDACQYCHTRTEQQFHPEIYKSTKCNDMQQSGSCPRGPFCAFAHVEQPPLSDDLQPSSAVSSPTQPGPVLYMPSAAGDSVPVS
Oligonucleotide,bound/input enrichment
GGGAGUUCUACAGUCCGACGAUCUGUGCUGAAUUACACCAAAAUGUAAAUGUGAAAAACAUAAUCAUUGCUUUAAUUGACAGAUUAGCUUUAUUUGCUCAUCGUGAAGAUGGACCCGGAAUUCCAGCUGAGAUUAAACUUUUUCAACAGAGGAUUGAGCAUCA,0.327 ratio
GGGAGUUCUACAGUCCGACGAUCGUAGAUGGAACUUUUCUAGUGUGGCAUGUAAAGUAUUUGGAUGAAUAUAACCCUGGAAUAUUUAGACAAGUUCAGGUUUCUUUUUCCUCUCGGAUUCCUGUUGCAUUUCCCUCUGGGGACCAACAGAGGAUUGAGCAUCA,0.576 ratio
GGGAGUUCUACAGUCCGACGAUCAACAUUUCUACUUUACCAGAGAGUCUUUUAUCAAGUCUUGUGAAACUGAAUAGUUUGACCUUAGCUAGAAAUUGCUUCCAGUUGUAUCCAGUGGGUGGUCCAUCUCAGUUUUCUACCAUCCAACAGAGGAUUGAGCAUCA,0.59 ratio
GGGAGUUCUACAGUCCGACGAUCCGCCAGCCACUCGCCCCUGGCCUCGCGGGCCGUGUCUCCGGCAUCAUGUGUGGUAUAUUUGCUUACUUAAACUACCAUGUUCCUCGAACGAGACGAGAAAUCCUGGAGACCCUAAUCAAACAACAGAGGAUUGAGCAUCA,0.144 ratio
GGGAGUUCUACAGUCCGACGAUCCUUGAAGACAGCUGUACUGUUGGAGAGAUCAAACAGAUUCUAGAAAAUGAGCUUCAGAUACCUGUGCCUAAAAUGCUGUUAAAAGGCUGGAAGACUGGAGACGUGGAAGACAGUACGGUCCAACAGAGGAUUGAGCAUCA,0.149 ratio
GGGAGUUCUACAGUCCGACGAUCAACAUAUUAGAUCUUUGUACAGCAUUGUCUGCUUUGUCAGGAAUACCUGCAGAUAAGAUGAUAGUUACUGAUAUAUACAAUCAUAGAUUUCACAGAAUAUUCGCUAUGGAUGAAAACCUUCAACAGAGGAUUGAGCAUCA,0.994 ratio
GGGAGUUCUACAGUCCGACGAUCUCCUUUAUGUAUUCUUCUCUACCGUAUAACACACUGAAACUGUAUCUACUUGCUGUGUUGCAAUAUUUUGCUGCUGGACUUUGACCUACUUGUAUUAUGCAGAAAGUUAAUGCAGAUACCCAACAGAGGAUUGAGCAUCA,0.397 ratio
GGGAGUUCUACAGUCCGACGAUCGAGCGGGGCUGUCACCUGGAGAUCACGGAGGGAAGUUCAUCCAUGAGCUCGGAUUUCCCACAUUACAACUUCAGGAUGCCUAAUAUUGGAUUCCAGAAUCUGCCUCUCAACAUAUAUAUUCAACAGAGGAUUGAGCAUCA,0.121 ratio
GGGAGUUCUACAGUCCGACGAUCAAGCCUGGCCCCGAUGGUCUCCGUGGAAUCCCUGGUCCUGUGGGUGAGCAAGGCCUCCCAGGAUCCCCAGGCCCCGAUGGUCCACCCGGCCCCAUGGGUCCUCCAGGACUCCCUGGCCUCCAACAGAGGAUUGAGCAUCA,0.111 ratio
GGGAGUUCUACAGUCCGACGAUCGGGAGCUAUGAUCCACAGAAACAGCUCAUCAUUGAAGAUCCCUAUUAUGGCAAUGACUCUGACUUCGAGGUGGUGUACCAGCAAUGCCUUAGGUGCUGCAAGGCCUUCCUGGAGAAGACUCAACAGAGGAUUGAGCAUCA,0.0974 ratio
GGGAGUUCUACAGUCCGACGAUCCCGGACGACGAGGCUGCCAUGGGCAUUAAAAGCUGUGACCCCAAAGGCCCUCUUAUGAUGUAUAUUUCCAAAAUGGUGCCAACCUCCGACAAAGGUCGGUUCUACGCCUUUGGACGAGUCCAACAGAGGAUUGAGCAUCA,0.132 ratio

# Excerpt of the above (sample 3):
Oligonucleotide,E-score
AAGGAATG,-0.0627
ATCACGGA,0.164
AGCCTGAC,-0.124
AAGCGGGG,0.111
ATACCAGA,-0.226
CAAGAAAA,-0.0871
TGGGAAAA,-0.128
GGCACCAA,0.0565
AGTCGGTG,-0.0897
CACGCGTG,0.231
AGGGGAAT,-1.5e-05
